Measurements of several laboratories.
Protocols differ between the studies behind these lines. “And” joins repeats or separate records; there may be more than shown. Numbers after ± are the reported error.

O=C(NS(=O)(=O)c1cccs1)c1cc2ccccc2n1Cc1ccc(Br)c2ccccc12 — body weight (KM mouse, chronic hyperuricaemia model; dose not given, day 5): 28 g and 24.9 g and 29.2 g and 28.4 g and 27 g and 26.8 g
CC(=O)N[C@@H](Cc1ccccc1)C(=O)N[C@@H](CC(C)C)C(=O)NCC(=O)N[C@H](C(=O)N[C@@H](CC(C)C)C(=O)N[C@@H](C)C(=O)N[C@@H](CC(C)C)C(=O)N[C@@H](CC(C)C)C(=O)NCC(=O)N[C@@H](Cc1ccc(O)cc1)C(=O)N[C@@H](CC(C)C)C(=O)N[C@@H](C)C(=O)N[C@H](C(=O)N[C@@H](CCCNC(=N)N)C(=O)N1CCC[C@H]1C(=O)N[C@@H](Cc1ccccc1)C(=O)N[C@@H](CC(C)C)C(=O)N1CCC[C@H]1C(=O)N[C@@H](CCCCN)C(=O)N[C@@H](CCCCN)C(=O)N[C@@H](CCCCN)C(=O)N[C@@H](CCC(N)=O)C(=O)N[C@@H](CCC(N)=O)C(=O)N[C@@H](CCCCN)C(N)=O)C(C)C)C(C)C — cleaved to intact ratio (LC-MS; DOPC/DOPS vesicles with trypsin; 10 µM, 12 h, pH 7.2): 0.2 ± 0.1
CC[C@H](C)[C@H](NC(=O)[C@H](CCCNC(=N)N)NC(=O)[C@H](Cc1c[nH]cn1)NC(=O)[C@@H](N)[C@@H](C)O)C(=O)N[C@@H](CC(C)C)C(=O)N[C@@H](CCCNC(=N)N)C(=O)N[C@@H](CCCNC(=N)N)C(=O)N[C@@H](CC(C)C)C(=O)N[C@@H](Cc1ccccc1)C(=O)N[C@@H](CC(N)=O)C(=O)N[C@@H](CC(C)C)C(=O)N[C@@H](CS)C(N)=O — ambulatory activity (metabolic cages; C57BL/6J mice; ip, 5 mg/kg): no effect
O=C([O-])CN1CCN(CC(=O)[O-])CCN(CC(CCCc2ccccc2[N+](=O)[O-])N(CC(=O)[O-])CC(=O)[O-])CC1.[177Lu+3] (centres unmarked) — intact radiolabelled complex (HPLC; human serum; 86 h, pH 7, 37 °C): 100%
COc1cccc(OC)c1-c1cc(C(=O)NC2(C(=O)O)C3CC4CC(C3)CC2C4)nn1-c1ccc(C(=O)N(C)CCOCCN(C)C(=O)[C@H](CCCCNC(=O)[C@H](CC(C)C)NC(=O)C2OC2C(=O)O)NC(=O)CN2CCN(CC(=O)[O-])CCN(CC(=O)[O-])CCN(CC(=O)[O-])CC2)cc1C(C)C.[177Lu+3] (mixture of isomers) — tumour-to-heart ratio (mouse, HT-29 xenograft; 4 h post injection, biodistribution; reference: tumour over heart uptake): 5.93
CC(C)(F)CC(NC(c1ccc(-c2ccc(S(C)(=O)=O)cc2)cc1)C(F)(F)F)C(=O)NCC#N (centres unmarked) — cysteine adduct formation (MES buffer; 100 µM, 23 h, pH 5.5, 37 °C, together with: cysteine 10 mM): 5%
C=C(NC(=O)c1csc(-c2nc3c(cc2O)-c2nc(cs2)C(=O)NC(C(C)O)C(=O)NC(=C(C)OC)c2nc(cs2)C(=O)NC2c4nc(cs4)C(=O)NC(COC(=O)c4c5c6c(cccc6n4O)COC(=O)C(OC4CC(C)(O)C(N(C)C)C(C)O4)C2OC5)c2nc-3cs2)n1)C(N)=O (centres unmarked) — MRT(0-last) (Sprague-Dawley rat, both sexes, plasma; intravenous infusion, 6 mg/kg, multiple doses, day 1): 1.46 h
CN1CCC[C@]1(C)/C=C/S(=O)(=O)NC(=O)Nc1c2c(cc3c1CCC3)CCC2 — subjects with adverse event (measured: general and administration site disorders; human; oral, 50 mg twice daily, 14 days, multiple ascending dose): 16.7%
COC1C=COC2(C)Oc3c(C)c(O)c4c(c3C2=O)C2=NC3(CCN(CC(C)C)CC3)NC2=C(NC(=O)C(C)=CC=CC(C)C(O)C(C)C(O)C(C)C(OC(=O)Nc2cscn2)C1C)C4=O (centres unmarked) — oral bioavailability (CD-1 mouse, female, plasma; oral, 10 mg/kg): 53%
O=C1C2CC3CC1CC(C(=O)N1CCN(c4ccc([N+](=O)[O-])c5ncccc45)CC1)(C3)C2 — revertant fold increase (Salmonella typhimurium; Ames test; TA97a; 0.13 µg/well, without S9; reference: vehicle): 1
O=C(Nc1cnccc1-c1ccc([18F])cc1)c1ccnc(NC(=O)C2CC2)c1 — SUV (FVB/NJ mice (both sexes), lung; intravenous, dose not given, 120 min): 0.18
COC1CN([C@H]2CC[C@H]([C@@]3(C)Oc4c(Cl)cc(C(=O)NCc5c(SC)cc(C)[nH]c5=O)c(C)c4O3)CC2)C1 — log2 fold change (RNA-seq, measured: EPN2 mouse homolog; mouse, HT-1376 xenograft, whole blood; dose not given; reference: vehicle): 0.775
CCNCC#CCNc1ccnc2cc(Cl)ccc12 — MS peak area (measured: compound as metabolite; human hepatocytes; 10 µM DAQ, 30 min; higher = more metabolite formed): 3e+06 a.u.
CCCCN1C(=O)c2cccc3c(NCCCCCCN4CCOCC4)ccc(c23)C1=O — fluorescence lifetime (acetonitrile): 10.4 ns
CC(C)(C)C(=O)Nc1ccc2[nH]c(CN3CCC(N(CCCN4CCOCC4)CC4OC(n5cnc6c(N)ncnc65)C(O)C4O)CC3)nc2c1 (centres unmarked) — concentration (male Sprague-Dawley rat, plasma; intraperitoneal, 20 mg/kg, 15 min): 2140 ng/mL
O=S(=O)(N[C@H]1CCC[C@@H](N2c3ccccc3CCc3ccccc32)[C@@H]1O)c1ccc(OC(F)(F)F)cc1 — oral bioavailability (mouse; oral, 100 mg/kg, suspension formulation): 14%
CC(=O)N[C@H](CC(=O)O)C(=O)N[C@H](Cc1c[nH]c2ccccc12)C(=O)N[C@H](Cc1ccccc1)C(=O)N[C@H](CCCCN)C(=O)N[C@H](C)C(=O)N[C@H](Cc1ccccc1)C(=O)N[C@H](Cc1ccc(O)cc1)C(=O)N[C@H](CC(=O)O)C(=O)N[C@H](CCCCN)C(=O)N[C@@H](C(=O)N[C@H](C)C(=O)N[C@H](CCC(=O)O)C(=O)N[C@H](CCCCN)C(=O)N[C@H](Cc1ccccc1)C(=O)N[C@H](CCCCN)C(=O)N[C@H](CCC(=O)O)C(=O)N[C@H](C)C(=O)N[C@H](Cc1ccccc1)C(N)=O)C(C)C — Cmax (high-risk statin-treated men with CHD, plasma; oral, dose not given, median, doses pooled): 5.4 ng/mL
O=C(O)CCCOc1ccc([18F])cc1-c1cc(-c2ccccc2C(F)(F)F)n(-c2ccccc2)n1 — absorbed radiation dose (OLINDA/EXM extrapolation from mouse; human adult, breast): 6.06 µGy/MBq
C=CC(=O)Nc1cc(Nc2nccc(-c3c[nH]c4ccccc34)n2)c(OC)cc1N(C)CCN(C)C — recovery (storage stability; human dried blood spots; 72 h, -80 °C, high QC level): 89%
Cc1cc(NC(=O)[C@H](O)c2cc(F)cc(F)c2)ccc1-c1cnc(N)c(C(=O)NC(C)C)c1 — dose-normalised Cmax (athymic nude Foxn1nu mouse, female, plasma; oral, 10 mg/kg): 171 ng·kg/mL/mg
C=Cc1c(C)c2cc3nc(c(CC(=O)OCCOCCOCCOC)c4[nH]c(cc5nc(cc1[nH]2)C(C)=C5CC)c(C)c4C(=O)O)[C@@H](CCC(=O)OCCOCCOCCOC)[C@@H]3C — compound loss (LC-MS; methanol-water 9:1; 5 min, pH 2.0): 23%
C=CC(=O)Nc1cccc(Cn2ncc3cnc(Nc4cnn(CCOC)c4)nc32)c1 — percent of control (VRK2 human; binding, KINOMEscan; 100 nM; lower = stronger binding): 76%
COc1cnc2cccc(N3CCc4c(cc(Cn5ccnc5)cc4-c4cn(C)nc4C(F)(F)F)C3=O)c2c1 — Cmax (male CD-1 mouse, plasma; oral, 10 mg/kg): 2960 ng/mL
O=C1NC2(CC2)COc2ncc(F)cc2[C@H]2COCCN2c2ccn3ncc1c3n2 — revertant colonies (Salmonella typhimurium; Ames test; TA100; 1500 µg/plate, 48 h, together with: rat liver S9): 72 ± 14 revertants/plate
Nc1ncc(-c2cc(-c3cnn(CC(F)(F)F)c3)ncc2F)nc1C(=O)NC1CNCC(F)C1 (centres unmarked) — remaining binding (STK39; KINOMEscan; 1 µM; reference: DMSO control): 78%
CC(C)OCCOCc1ccc(OCC(O)CN(N=O)C(C)C)cc1 (centres unmarked) — fold change (duplex sequencing, measured: mutation frequency; NMRI mouse, bone marrow; oral, 9.95 mg/kg/day, 4 weeks; reference: vehicle): 0.9
C/C(N)=N/C(=N\S(=O)(=O)c1ccc(C(F)(F)F)cc1)N1C[C@H](c2ccccc2)C(c2ccc(Cl)cc2)=N1 — fraction unbound (monkey, plasma): 0.0008
CC(C)(c1cc(Br)c(O)c(Br)c1)c1cc(Br)c(O)c(Br)c1 — milk fat partition ratio (cow whole milk; 200 nM; reference: milk fat over skim milk): 22.7
Cc1nn(-c2nc3c(F)cc(F)cc3s2)c(O)c1C(c1ccc(C(F)(F)F)cc1)c1c(C)nn(-c2nc3c(F)cc(F)cc3s2)c1O — AUMC(0-inf) observed (ICR mouse, plasma; intravenous, 5 mg/kg): 322000 h²·ng/mL and 2.26e+06 h²·ng/mL and 263000 h²·ng/mL
O[C@@H]1[C@@H](O)[C@H](n2cc(-c3ccc(-c4nncnn4)cc3)nn2)O[C@H](C[18F])[C@H]1O — tumour to control tumour ratio (BALB/c nude mouse, LS174T xenograft; intravenous, dose not given, 1 h, together with: CC49-TCO pretargeting): 4.2
CCC1CNC(CC)CN(C(C(=O)[O-])c2ccc(C(=O)[O-])cc2)C(CC)CN(CC(=O)[O-])C(CC)CN1.[Mn+2] (centres unmarked) — Mn content (ICP-MS; BALB/c mouse, intestine; intravenous, 0.05 mmol/kg, 30 min, without anaesthesia): 13.9 ± 11.2 µg/g
CN1CCC[C@]1(C)/C=C/S(=O)(=O)NC(=O)Nc1c2c(cc3c1CCC3O)CCC2 (some centres unmarked) — Tmax at first steady-state dose (human, plasma; oral, 50 mg twice daily of parent drug, day 14, metabolite of dosed drug): 3 h
C=CC(=O)Nc1cc(Nc2nccc(-c3cn(C)c4ccccc34)n2)c(OC)cc1N(C)CCNC — remaining compound (human, plasma; 10 d, -80 °C, high QC level): 103%
COc1cc(N2CCN(C(=O)C3CCCN3)CC2)ccc1Nc1ncc(Cl)c(Nc2ccccc2P(C)(C)=O)n1 (centres unmarked) — body weight (nude mice, NCI-H3122 xenograft; intraperitoneal, 10 mg/kg every other day, day 5): 24.7 g and 22.3 g and 24.1 g and 24.5 g and 27.7 g
C=CC(=O)Nc1cc(Nc2nccc(-c3cn(C4CC4)c4ccccc34)n2)c(OC)cc1N(C)CCNC — relative error (autosampler stability; rat plasma; 80 ng/mL, 4 h, 10 °C; reference: nominal concentration): -0.9%
CCCC[C@H](OC(C)=O)c1ccccc1C(=O)O — Vss (Sprague-Dawley rats, both sexes, whole blood; intravenous, 1.25 mg/kg single dose): 2.89 ± 1.57 L/kg
CC(C)(O)c1ncc([S@](N)(=O)=NC(=O)Nc2c3c(cc4c2CCC4)CCC3)s1 — subjects with TEAEs (measured: nervous system disorders; healthy human; oral, 30 mg, 14 days, CS formulation, once daily): 67%
CN(CCCO)Cc1ccc(-c2noc(-c3ccc(OCC[18F])c(C(F)(F)F)c3)n2)cc1F — tissue uptake (Sprague-Dawley rats, male, spleen; 5 min post-injection): 1.9 ± 0.32 %ID/g
Cc1ccc(CN2C(=O)/C(=N\c3ccc(Cl)cc3Br)c3ccccc32)cc1 — granulocytes (mouse, blood; 200 mg/kg): 43.4 ± 6.5%
CCCC[C@H](NC(=O)CNC(=O)CNC(=O)[C@H](CCCCNC(=O)[C@H](CCN)NC(=O)C(C)c1ccc(CC(C)C)cc1)NC(=O)CN1CCN(CC(=O)O)CCN(CC(=O)O)CCN(CC(=O)O)CC1)C(=O)N[C@H]1CC(=O)NCCCC[C@@H](C(N)=O)NC(=O)[C@H](Cc2c[nH]c3ccccc23)NC(=O)[C@H](CCCNC(=N)N)NC(=O)[C@@H](Cc2ccccc2)NC(=O)[C@H](Cc2c[nH]cn2)NC1=O (some centres unmarked) [lutetium-177 labelled] — tumour-to-tissue ratio (C57 mice, tumour; 2 h; reference: lung): 15.9
COc1ccnc(C(=O)N[C@H]2COC(=O)[C@H](Cc3ccccc3)[C@@H](OC(=O)C(C)C)[C@H](C)OC2=O)c1O — DT50 (aerobic dark soil incubation; silt loam soil; 20 °C, modelling endpoint): 19.7 days
COCC1CN(C2CCN(c3cc(OC)c(Nc4ncc(Br)c(Nc5ccc6c(c5P(C)(C)=O)OCCO6)n4)cc3C)CC2)C1 — AUC (human, plasma; oral, 60 mg, multiple doses, patients): 16000 ng·h/mL
C[N+](C)(CCOCCOCCOCCNC(=S)Nc1ccc(C[C@H]2CN(CC(=O)[O-])CCN(CC(=O)[O-])CCN2CC(=O)[O-])cc1)C[c-]1cccc1.[64Cu+2].[Fe+2].c1cc[cH-]c1 — tumour uptake (pretargeted biodistribution; nude mouse, BxPC-3 xenograft tumour; 24 h post injection, 216 h lag time): 0.4 ± 0.1 %ID/g
CC[C@H](C)[C@@H]1NC(=O)[C@H](Cc2ccc(O)cc2)NC(=O)CCCSC[C@@H](C(=O)N(CC(=O)N[C@@H](CC(C)C)C(=O)NCC(N)=O)Cc2ccc(F)cc2)NC(=O)[C@H](CC(N)=O)NC(=O)[C@H](CCC(N)=O)NC1=O — serious adverse events (human; intranasal, 100 µg single dose): 0%
